Measurements gathered from unrelated publications.
Each numbered part is a random draw from the data of one study; scales do not carry over between parts.

Block 1
Target: Sal-like protein 4, full length isoform A (SALL4, Homo sapiens, UniProt Q9UJQ4, residues 1-1053)
UniProt Q9UJQ4, sequence (whole entry, looked up): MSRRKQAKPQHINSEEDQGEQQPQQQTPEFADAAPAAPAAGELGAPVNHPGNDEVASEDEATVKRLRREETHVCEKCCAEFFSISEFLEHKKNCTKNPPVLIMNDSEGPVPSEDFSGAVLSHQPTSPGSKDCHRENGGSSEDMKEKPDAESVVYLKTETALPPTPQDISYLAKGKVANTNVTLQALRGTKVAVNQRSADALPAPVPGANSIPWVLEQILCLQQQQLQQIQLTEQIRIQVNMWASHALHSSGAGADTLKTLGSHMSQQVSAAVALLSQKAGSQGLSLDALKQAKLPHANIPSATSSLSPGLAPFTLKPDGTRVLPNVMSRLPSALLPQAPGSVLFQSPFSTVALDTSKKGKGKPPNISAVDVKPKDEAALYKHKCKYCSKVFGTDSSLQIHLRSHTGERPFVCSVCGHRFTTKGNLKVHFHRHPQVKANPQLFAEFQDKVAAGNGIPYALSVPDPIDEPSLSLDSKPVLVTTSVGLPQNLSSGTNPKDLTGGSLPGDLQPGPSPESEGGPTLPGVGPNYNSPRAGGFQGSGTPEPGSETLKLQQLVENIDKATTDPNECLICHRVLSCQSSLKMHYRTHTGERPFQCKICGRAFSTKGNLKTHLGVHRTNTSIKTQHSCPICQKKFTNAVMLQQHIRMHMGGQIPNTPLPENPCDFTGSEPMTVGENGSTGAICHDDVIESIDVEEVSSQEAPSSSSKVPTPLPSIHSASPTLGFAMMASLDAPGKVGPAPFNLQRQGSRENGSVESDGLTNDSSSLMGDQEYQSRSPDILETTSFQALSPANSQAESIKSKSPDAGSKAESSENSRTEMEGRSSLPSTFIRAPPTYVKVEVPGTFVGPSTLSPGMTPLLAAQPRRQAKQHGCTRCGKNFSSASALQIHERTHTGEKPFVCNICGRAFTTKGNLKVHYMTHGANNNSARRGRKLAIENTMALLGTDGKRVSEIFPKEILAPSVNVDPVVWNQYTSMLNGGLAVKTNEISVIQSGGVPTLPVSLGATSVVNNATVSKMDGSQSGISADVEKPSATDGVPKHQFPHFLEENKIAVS
Method: universal PBM
Molecule type: double-stranded DNA, one strand shown
Medium: in vitro
Tested at: 600 nM
Setting: 8-mer, flanks averaged, mean of replicates
Reading: higher = stronger binding
Sequence	E-score
TTAAGAAA	0.283
CTGATATC	0.0817
AGACTTAG	-0.0481
GATTTACC	0.098
ACTAGGGC	-0.157
ATAGTAGG	0.0839
ACGTCACT	-0.093

Block 2
Target: Interferon regulatory factor 5, full length, phosphomimetic (IRF5, Homo sapiens, UniProt Q13568-2, residues 1-514, K96S/S451D/S453D/S456D/S462D)
Method: protein-binding microarray
Molecule type: double-stranded DNA, one strand shown
Medium: in vitro
Tested at: 250 nM
Setting: 60-bp whole probe
Added: salmon DNA 0.4 mg/ml
Reference: random background probes
Reading: higher = stronger binding
All sequences stand within: GCCTAGCAC … GTCTTGATTCGCTTGACGCTGCTG
Sequence	log fluorescence [z-score]
GACGGTTTCCTACAGCTGACGTGCTAG	0.138
TTAGATTTCAGACTGGAGTAGTGCTAG	0.333
TTAGGTTTCCTACTGCTTGAGTGCTAG	0.511
GACGGTTTCTGTTTCGGGACGTGCTAG	7.76
GTAGATTTCGGGACTGGATTAGTGCTA	2.53

Block 3
Target: Histone acetyltransferase KAT6A, winged helix 1, GST fusion (KAT6A, Homo sapiens, UniProt Q92794, residues 1-85)
Method: protein binding microarray
Molecule type: double-stranded DNA, one strand shown
Medium: in vitro
Tested at: not given
Setting: 8-mer, flanks averaged, mean of 2 arrays, mostly near background
Reference: not given
Reading: higher = stronger binding
Residues (chain): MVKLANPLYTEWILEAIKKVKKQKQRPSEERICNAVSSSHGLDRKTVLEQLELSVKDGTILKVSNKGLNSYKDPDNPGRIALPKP
Sequence	E-score
CTTTGTAC	-0.196
CGTATCTA	0.0577
AGAAACAG	-0.0866
CTATACAA	-0.0198
GGCTGTAA	-0.0917
ACACCTAA	-0.057
ACCTCTGA	-0.0994
AAGCCGAT	0.153

Single results of other studies
Substance	target	assay	test system	conditions	scale	quantity	result
PhoQ, residues 284 288 289 292 302 303 ASASEQ	PhoP, residues 12 14 15 18 19 NQCAL (Escherichia coli, UniProt P23836)	Sort-seq, measured: YFP reporter	E. coli	PhoQ-PhoP variant library, added: 10 µM Mg2+	reference: high Mg2+ state, higher = stronger signaling	fold induction	21.5

Repeated from above (block 3):
Sequence	E-score
CTTTGTAC	-0.196
CGTATCTA	0.0577
